Results collected from several papers.
Numbered parts are unrelated; each lists some results of a single study. pEC50: −log10 of the molar value.
UniProt Q13464, sequence (whole entry, looked up): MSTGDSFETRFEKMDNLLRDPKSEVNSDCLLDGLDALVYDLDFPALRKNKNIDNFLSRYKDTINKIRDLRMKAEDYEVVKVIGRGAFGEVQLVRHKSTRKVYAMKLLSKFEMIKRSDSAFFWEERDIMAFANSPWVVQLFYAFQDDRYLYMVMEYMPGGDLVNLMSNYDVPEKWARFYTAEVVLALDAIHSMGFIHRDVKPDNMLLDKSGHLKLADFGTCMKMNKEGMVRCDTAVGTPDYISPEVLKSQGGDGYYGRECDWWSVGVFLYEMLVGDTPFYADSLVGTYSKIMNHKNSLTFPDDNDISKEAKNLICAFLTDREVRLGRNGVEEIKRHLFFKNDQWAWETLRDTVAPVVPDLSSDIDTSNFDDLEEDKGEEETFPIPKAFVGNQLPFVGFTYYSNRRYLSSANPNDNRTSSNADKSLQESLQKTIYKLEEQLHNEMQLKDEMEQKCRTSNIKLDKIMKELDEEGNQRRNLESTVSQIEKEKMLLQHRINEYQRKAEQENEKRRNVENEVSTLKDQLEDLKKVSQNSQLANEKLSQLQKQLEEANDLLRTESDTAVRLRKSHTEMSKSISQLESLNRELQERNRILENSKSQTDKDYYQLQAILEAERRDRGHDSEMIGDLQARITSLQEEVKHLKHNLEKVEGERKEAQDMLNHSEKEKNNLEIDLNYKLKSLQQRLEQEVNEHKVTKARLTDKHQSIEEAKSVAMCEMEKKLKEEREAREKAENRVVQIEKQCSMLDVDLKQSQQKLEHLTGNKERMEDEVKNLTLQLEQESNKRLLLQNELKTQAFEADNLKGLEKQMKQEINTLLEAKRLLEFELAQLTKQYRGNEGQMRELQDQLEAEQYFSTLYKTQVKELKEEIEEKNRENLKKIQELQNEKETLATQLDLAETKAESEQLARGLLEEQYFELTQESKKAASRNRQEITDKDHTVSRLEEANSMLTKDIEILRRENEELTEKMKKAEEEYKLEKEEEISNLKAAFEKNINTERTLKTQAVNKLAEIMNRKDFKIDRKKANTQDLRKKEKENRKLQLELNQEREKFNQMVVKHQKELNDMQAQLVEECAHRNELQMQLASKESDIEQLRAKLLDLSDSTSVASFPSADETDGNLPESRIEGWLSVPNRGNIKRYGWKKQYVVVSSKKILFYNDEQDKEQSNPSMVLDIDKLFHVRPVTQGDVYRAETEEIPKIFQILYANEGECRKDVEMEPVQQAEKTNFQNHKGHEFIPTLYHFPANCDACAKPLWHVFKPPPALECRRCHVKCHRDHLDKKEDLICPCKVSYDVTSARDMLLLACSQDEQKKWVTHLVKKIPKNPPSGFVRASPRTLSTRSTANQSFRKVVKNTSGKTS
UniProt O00750, sequence (whole entry, looked up): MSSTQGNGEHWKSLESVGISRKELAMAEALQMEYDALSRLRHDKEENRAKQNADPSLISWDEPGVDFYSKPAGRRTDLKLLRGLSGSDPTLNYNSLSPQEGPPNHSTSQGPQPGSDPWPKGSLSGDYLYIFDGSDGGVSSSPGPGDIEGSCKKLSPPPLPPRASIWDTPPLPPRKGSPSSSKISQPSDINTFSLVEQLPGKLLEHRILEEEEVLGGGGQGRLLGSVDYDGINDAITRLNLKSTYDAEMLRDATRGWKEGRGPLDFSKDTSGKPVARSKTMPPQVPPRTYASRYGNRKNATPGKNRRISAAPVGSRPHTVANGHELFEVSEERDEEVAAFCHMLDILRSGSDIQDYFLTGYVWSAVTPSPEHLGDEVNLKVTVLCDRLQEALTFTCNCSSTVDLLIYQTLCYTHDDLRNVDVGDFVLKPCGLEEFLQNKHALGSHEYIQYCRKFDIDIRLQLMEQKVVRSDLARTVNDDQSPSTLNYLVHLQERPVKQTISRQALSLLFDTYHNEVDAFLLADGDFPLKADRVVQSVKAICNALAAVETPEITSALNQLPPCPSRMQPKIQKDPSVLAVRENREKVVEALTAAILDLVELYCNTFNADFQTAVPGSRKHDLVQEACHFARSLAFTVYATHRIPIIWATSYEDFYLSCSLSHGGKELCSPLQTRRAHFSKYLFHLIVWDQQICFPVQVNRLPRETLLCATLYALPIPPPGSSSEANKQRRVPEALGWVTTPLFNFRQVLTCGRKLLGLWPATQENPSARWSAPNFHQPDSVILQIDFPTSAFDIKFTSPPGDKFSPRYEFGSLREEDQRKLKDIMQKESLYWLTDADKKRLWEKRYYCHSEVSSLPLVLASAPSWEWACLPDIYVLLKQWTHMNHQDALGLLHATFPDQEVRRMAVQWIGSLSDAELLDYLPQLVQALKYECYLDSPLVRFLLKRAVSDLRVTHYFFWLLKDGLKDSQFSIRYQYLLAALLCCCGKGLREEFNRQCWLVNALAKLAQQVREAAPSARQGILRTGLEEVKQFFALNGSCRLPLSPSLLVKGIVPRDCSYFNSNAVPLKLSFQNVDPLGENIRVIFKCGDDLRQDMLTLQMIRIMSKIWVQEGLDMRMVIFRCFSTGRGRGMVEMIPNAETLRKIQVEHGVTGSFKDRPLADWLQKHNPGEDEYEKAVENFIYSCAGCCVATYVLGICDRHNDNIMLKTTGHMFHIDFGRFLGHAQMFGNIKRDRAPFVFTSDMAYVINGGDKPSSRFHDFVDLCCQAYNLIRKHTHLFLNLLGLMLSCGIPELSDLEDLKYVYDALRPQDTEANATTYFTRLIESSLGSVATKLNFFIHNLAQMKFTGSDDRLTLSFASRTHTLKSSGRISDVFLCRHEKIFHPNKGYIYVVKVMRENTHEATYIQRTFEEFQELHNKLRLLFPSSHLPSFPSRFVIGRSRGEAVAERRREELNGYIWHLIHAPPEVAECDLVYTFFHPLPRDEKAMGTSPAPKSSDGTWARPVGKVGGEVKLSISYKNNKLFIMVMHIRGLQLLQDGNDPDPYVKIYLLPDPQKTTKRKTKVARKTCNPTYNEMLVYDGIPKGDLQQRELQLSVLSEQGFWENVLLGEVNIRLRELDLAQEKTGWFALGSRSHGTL
UniProt Q15759, sequence (whole entry, looked up): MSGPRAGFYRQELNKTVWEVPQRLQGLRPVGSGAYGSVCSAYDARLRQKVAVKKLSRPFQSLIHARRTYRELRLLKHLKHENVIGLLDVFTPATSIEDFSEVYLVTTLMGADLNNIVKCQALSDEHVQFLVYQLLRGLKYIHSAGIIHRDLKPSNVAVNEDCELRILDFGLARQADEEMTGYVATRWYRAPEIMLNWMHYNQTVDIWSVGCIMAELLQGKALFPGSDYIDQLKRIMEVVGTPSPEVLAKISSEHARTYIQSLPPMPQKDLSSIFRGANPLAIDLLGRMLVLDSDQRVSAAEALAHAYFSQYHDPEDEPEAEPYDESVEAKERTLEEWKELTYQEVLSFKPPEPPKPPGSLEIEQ
UniProt Q7L7X3, sequence (whole entry, looked up): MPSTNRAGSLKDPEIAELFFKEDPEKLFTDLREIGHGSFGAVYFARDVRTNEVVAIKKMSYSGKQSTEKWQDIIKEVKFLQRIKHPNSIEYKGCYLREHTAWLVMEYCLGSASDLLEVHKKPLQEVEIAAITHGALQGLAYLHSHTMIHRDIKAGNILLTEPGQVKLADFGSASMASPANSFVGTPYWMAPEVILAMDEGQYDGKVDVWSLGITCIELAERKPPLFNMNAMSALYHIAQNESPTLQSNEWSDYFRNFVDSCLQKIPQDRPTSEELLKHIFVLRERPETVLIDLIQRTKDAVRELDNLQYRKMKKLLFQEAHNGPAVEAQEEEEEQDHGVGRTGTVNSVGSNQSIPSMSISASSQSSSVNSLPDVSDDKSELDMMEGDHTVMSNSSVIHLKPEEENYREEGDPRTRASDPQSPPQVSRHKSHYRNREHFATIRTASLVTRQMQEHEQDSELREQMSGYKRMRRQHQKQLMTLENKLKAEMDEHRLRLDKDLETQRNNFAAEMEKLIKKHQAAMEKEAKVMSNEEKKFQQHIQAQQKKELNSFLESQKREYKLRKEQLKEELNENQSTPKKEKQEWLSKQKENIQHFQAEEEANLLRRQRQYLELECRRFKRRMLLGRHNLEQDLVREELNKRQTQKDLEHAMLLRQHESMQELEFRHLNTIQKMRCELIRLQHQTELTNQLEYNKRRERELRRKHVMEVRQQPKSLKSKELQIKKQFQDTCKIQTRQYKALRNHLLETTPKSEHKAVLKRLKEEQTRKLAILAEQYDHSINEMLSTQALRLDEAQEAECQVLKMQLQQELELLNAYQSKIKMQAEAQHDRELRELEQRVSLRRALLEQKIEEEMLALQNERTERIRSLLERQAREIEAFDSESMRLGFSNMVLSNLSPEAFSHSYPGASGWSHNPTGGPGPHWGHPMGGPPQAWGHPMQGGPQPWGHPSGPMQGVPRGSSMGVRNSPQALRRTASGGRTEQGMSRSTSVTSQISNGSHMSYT

Block 1 — effect on: cell-free assay; technique: competition with immobilised ligand; tested at: 1 µM; quantity: remaining binding
SMILES: CCc1ccccc1C(=O)Nc1n[nH]c2c(C)c(F)c(C3C(C#N)=C(C)N(C)C(C)=C3C#N)cc12
RAF1 (Homo sapiens, UniProt P04049): 63%
PIK3C2B (Homo sapiens, UniProt O00750): 100%
KIT (Homo sapiens, UniProt P10721, V559D/V654A): 100%
TAOK1 (Homo sapiens, UniProt Q7L7X3): 100%
HIPK2 (Homo sapiens, UniProt Q9H2X6): 100%
Ribosomal protein S6 kinase alpha-2, C-terminal kinase domain (RPS6KA2, Homo sapiens, UniProt Q15349): 100%
SRMS (Homo sapiens, UniProt Q9H3Y6): 94%
ROCK1 (Homo sapiens, UniProt Q13464): 100%
YES1 (Homo sapiens, UniProt P07947): 86%

Block 2 — host: mouse; medium: microsomes or S9; tested at: 2 µM; time: 0.5 h; quantity: remaining compound
CCCn1ccnc1CN(C)Cc1cnn(-c2cccc(OC)c2)c1: 0.0981%
CCCc1noc2c1C(=O)CC(c1c(C)cc(C)cc1C)C2 (stereo not drawn): 20.5%
Cc1cc(O)nc(SCC(=O)C23CC4CC(CC(C4)C2)C3)c1C#N: 15%
CC(C)n1c(C(O)c2nc3ccccc3n2C)nc2ccccc21 (stereo not drawn): 0.555%
O=C(O)c1nc2nc(C3CC3)cc(C(F)(F)F)n2n1: 93%
Cn1c(C(=O)Nc2cnn(C(C)(C)C(=O)O)c2)cccc1=O: > 100%
Cn1ncc2c(NCc3cc4ccccc4[nH]3)nc(-c3ccccn3)nc21: 6.5%
N[C@@H](CC(=O)N1CCN(C(=O)OCc2ccccc2)CCN1C(=O)c1ccccc1)Cc1cc(F)c(F)cc1F: 7.36%
CCOc1cc(CNCCO)cc(Br)c1OC(C)C: 0%

Block 3 — effect on: enzyme activity; action: inhibitor; tested at: 0.5 µM; relative to: control; quantity: remaining activity
SMILES: NC(=O)c1ccc(N(C(N)=O)c2c(F)cccc2F)nc1-c1ccc(F)cc1F
CAMK4 (Homo sapiens, UniProt Q16566): 91.9%
DDR2 (Homo sapiens, UniProt Q16832): 100%
KDR (Homo sapiens, UniProt P35968): 96.5%
MINK1 (Homo sapiens, UniProt Q8N4C8): 100%
PRKG2 (Homo sapiens, UniProt Q13237): 98.1%
ROCK1 (Homo sapiens, UniProt Q13464): 108%
TLK2 (Homo sapiens, UniProt Q86UE8): 95.7%
PLK3 (Homo sapiens, UniProt Q9H4B4): 94.7%
PAK3 (Homo sapiens, UniProt O75914): 98.3%
Cyclin-dependent kinase 1, with cyclin A (CDK1, Homo sapiens, UniProt P06493): 101%
AKT2 (Homo sapiens, UniProt P31751): 118%
MARK2 (Homo sapiens, UniProt Q7KZI7): 131%
RPS6KA4 (Homo sapiens, UniProt O75676): 99%
MAPK11 (Homo sapiens, UniProt Q15759): 22.3%

Block 4 — action: agonist; quantity: pEC50
Target: Beta-1 adrenergic receptor (ADRB1, Homo sapiens, UniProt P08588)
UniProt P08588, sequence (whole entry, looked up): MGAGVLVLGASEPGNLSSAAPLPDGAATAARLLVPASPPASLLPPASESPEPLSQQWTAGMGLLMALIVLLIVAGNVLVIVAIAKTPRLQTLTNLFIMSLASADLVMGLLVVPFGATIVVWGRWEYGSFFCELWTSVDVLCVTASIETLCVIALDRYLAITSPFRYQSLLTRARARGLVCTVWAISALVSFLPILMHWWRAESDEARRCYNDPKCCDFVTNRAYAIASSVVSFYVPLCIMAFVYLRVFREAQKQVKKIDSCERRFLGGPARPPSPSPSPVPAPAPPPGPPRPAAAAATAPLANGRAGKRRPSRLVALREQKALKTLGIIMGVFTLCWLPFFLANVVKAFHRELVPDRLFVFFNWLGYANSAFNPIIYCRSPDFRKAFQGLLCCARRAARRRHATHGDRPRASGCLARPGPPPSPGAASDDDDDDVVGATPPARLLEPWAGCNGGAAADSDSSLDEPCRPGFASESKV
Cc1ccsc1-c1n[nH]c2ncc(-c3ccc(F)cc3)nc12: ≤ 4.00
c1ccc2c(CCNCc3ccc(-n4ccnc4)cc3)c[nH]c2c1: ≤ 4.00
OC(COc1ccc(CN2CC(O)C2)cc1)CN1CCCCC1 (stereo not drawn): ≤ 4.00
O=C(c1cc(-c2ccccc2)nc2ccccc12)N1CCc2c(nc[nH]c2=O)C1: ≤ 4.00
OC(COc1ccc(CN2CC(N3CCCCC3)C2)cc1)CN1CCCCC1 (stereo not drawn): ≤ 4.00
Cc1ccc(Nc2nc(N3CCOCC3)nc3nccnc23)c(C)c1: ≤ 4.00
CC(C)(C)NCC(O)COc1ccccc1OCC1CCCO1 (stereo not drawn): 7.48

A few entries again (block 2):
CCCc1noc2c1C(=O)CC(c1c(C)cc(C)cc1C)C2 (stereo not drawn): 20.5%
N[C@@H](CC(=O)N1CCN(C(=O)OCc2ccccc2)CCN1C(=O)c1ccccc1)Cc1cc(F)c(F)cc1F: 7.36%
CCCn1ccnc1CN(C)Cc1cnn(-c2cccc(OC)c2)c1: 0.0981%
Cc1cc(O)nc(SCC(=O)C23CC4CC(CC(C4)C2)C3)c1C#N: 15%
Cn1ncc2c(NCc3cc4ccccc4[nH]3)nc(-c3ccccn3)nc21: 6.5%
O=C(O)c1nc2nc(C3CC3)cc(C(F)(F)F)n2n1: 93%
